Published values pooled from the literature.
HTR1F: 5-hydroxytryptamine receptor 1F (HTR1F, Homo sapiens, UniProt P30939)
CNR2: Cannabinoid receptor 2 (CNR2, Homo sapiens, UniProt P34972)
4'-phosphopantetheinyl transferase PptT: 4'-phosphopantetheinyl transferase PptT (Mycobacterium tuberculosis, UniProt O33336)
OPRK1: Kappa-type opioid receptor (OPRK1, Homo sapiens, UniProt P41145)

Structure (SMILES)	target	test	setting	endpoint	value
CC(Cc1cccc(Cl)c1)NC(C)(C)C (centres unmarked)	Slc6a4 (Rattus norvegicus, UniProt P31652)	transporter uptake, inhibitor, radiometric	–	IC50	5110 nM
Nc1ncc(-c2nc(N3CCOCC3)nc(N3CCOCC3)n2)c(C(F)F)n1	PIK3CA (Homo sapiens, UniProt P42336)	binding, competition with immobilised ligand	10 µM	remaining binding	0%
CC[C@@H](CO)NC(=O)[C@@H]1C=C2c3cccc4[nH]cc(c34)C[C@H]2N(C)C1	HTR1F	G protein activation, agonist, BRET	–	EC50	5.21 nM
C[C@@]12CC[C@H](O)C[C@@H]1CC[C@H]1[C@H]2CC[C@@]2(C)C(=O)CC[C@H]12	CNR2	cAMP, agonist	–	EC50	2860 nM
Oc1ccc2c3c1O[C@H]1c4oc5ccccc5c4C[C@@]4(O)[C@@H](C2)N(CC2CC2)CC[C@]314	Trpm7 (Mus musculus, UniProt Q923J1)	calcium signal, agonist	–	EC50	49800 nM
O=c1c2cc(Br)ccc2[nH]c(=S)n1Cc1cccnc1	4'-phosphopantetheinyl transferase PptT	enzyme activity, inhibitor, FP	–	IC50	670 nM
CO[C@H]1/C=C/O[C@@]2(C)Oc3c(C)c(O)c4c(O)c(c(/C=N/N5CCN(C6CCCC6)CC5)c(O)c4c3C2=O)NC(=O)/C(C)=C\C=C\[C@H](C)[C@H](O)[C@@H](C)[C@@H](O)[C@@H](C)[C@H](OC(C)=O)[C@@H]1C	dppA (Mycobacterium tuberculosis, UniProt I6X811)	binding, SPR	–	Kd	> 125000 nM
O=c1c2cc(Cl)ccc2[nH]c(=S)n1Cc1ccc(-c2ccccc2)nc1	4'-phosphopantetheinyl transferase PptT	enzyme activity, inhibitor, FP	–	IC50	440 nM
COc1cc(CCNC(C)c2ccccc2O)c(OC)cc1C#N (centres unmarked)	HTR2B (Homo sapiens, UniProt P41595)	cell-free assay, radioligand	–	Ki	390 nM
CC(Cc1ccccc1)NCCC(c1ccccc1)c1ccccc1 (centres unmarked)	ADRB2 (Homo sapiens, UniProt P07550)	ligand displacement, radioligand	–	IC50	3490 nM
COCCC(c1cccnc1)n1c(=S)[nH]c2ccc(Cl)cc2c1=O (centres unmarked)	4'-phosphopantetheinyl transferase PptT	enzyme activity, inhibitor, FP	–	IC50	2600 nM
[2H]c1c([2H])c([C@]2([2H])CCCN2C(=O)C(C)(C)Oc2ccc3cn[nH]c3c2)c([2H])c([2H])c1C([2H])([2H])[2H]	VRK2 (Homo sapiens, UniProt Q86Y07)	binding, competition with immobilised ligand	1 µM	remaining binding	92%
NC(=O)c1cncc(Cn2c(=S)[nH]c3ccc(Cl)cc3c2=O)c1	4'-phosphopantetheinyl transferase PptT	enzyme activity, inhibitor, FP	–	IC50	400 nM
C/C=C1/CN2CC[C@]34C(=C(C(=O)OC)[C@H]1C[C@H]23)Nc1ccc(I)cc14	OPRK1	ligand displacement, radioligand	cell membranes	Ki	2.4 nM
O=C(N[C@H]1CC[C@@]2(O)[C@H]3Cc4ccc(O)c5c4[C@@]2(CCN3CC2CC2)[C@H]1O5)c1ccc(C(F)F)s1	OPRK1	ligand displacement, radioligand	cell membranes	Ki	2.45 nM
CN1CCC(C(=O)c2cccc(NC(=O)c3c(F)cc(F)cc3F)n2)CC1	HTR1F	G protein activation, agonist, BRET	–	EC50	17.7 nM
Cc1nn(C)cc1-c1nc2c(N3CCN(Cc4ccc(Cl)cc4)CC3)c(Cl)cnc2[nH]1	ACVR2A (Homo sapiens, UniProt P27037)	binding, competition with immobilised ligand	1 µM	remaining binding	100%
CS(=O)(=O)c1ccc(C(=O)N[C@H]2CC[C@@]3(O)[C@H]4Cc5ccc(O)c6c5[C@@]3(CCN4CC3CC3)[C@H]2O6)s1	OPRK1	ligand displacement, radioligand	cell membranes	Ki	5.47 nM
CCCc1cc(O)c2c(c1)OC(C)(CCC=C(C)C)C=C2 (centres unmarked)	CNR2	ligand displacement, radioligand	cell membranes	Ki	1390 nM
Clc1cc(Cl)cc(N2CCNCC2)c1	CHRM1 (Homo sapiens, UniProt P11229)	ligand displacement, radioligand	cell membranes	Ki	6310 nM
O=c1c2cc(Cl)ccc2oc(=S)n1Cc1cccnc1	4'-phosphopantetheinyl transferase PptT	enzyme activity, inhibitor, FP	–	IC50	13000 nM
COc1ncccc1-c1cnn2ccc(N3CCN(C(=O)OC(C)C)CC3)nc12	TIE1 (Homo sapiens, UniProt P35590)	binding, competition with immobilised ligand	1 µM	remaining binding	100%
O=c1c2cc(Cl)ccc2[nH]c(=S)n1Cc1ccccc1	4'-phosphopantetheinyl transferase PptT	enzyme activity, inhibitor, FP	–	IC50	> 100000 nM
O=C(N[C@H]1CC[C@@]2(O)[C@H]3Cc4ccc(O)c5c4[C@@]2(CCN3CC2CC2)[C@H]1O5)c1ccc(Cl)s1	OPRK1	ligand displacement, radioligand	cell membranes	Ki	1.51 nM
N#Cc1cncc(Cn2c(=S)[nH]c3ccc(Cl)cc3c2=O)c1	4'-phosphopantetheinyl transferase PptT	enzyme activity, inhibitor, FP	–	IC50	730 nM
CNC(C)C(=O)c1ccccc1 (racemic)	SLC6A3 (Homo sapiens, UniProt Q01959)	calcium signal, agonist, fluorescence	–	EC50	248 nM
